# Published values from different studies.
# Every numbered part comes from another study and shows a few of its results, in no order. Positions count from the first letter of the parent shown.

# Study 1 — target: CCND3, cyclin fold, Cln2 fusion (human); technique: yeast growth competition, sequencing; sample: yeast; setting: weak parent motif; relative to: not given; direction: higher = stronger binding
# Starting sequence: E2F1 docking peptide (human); PPVKRRLDLETDH; partner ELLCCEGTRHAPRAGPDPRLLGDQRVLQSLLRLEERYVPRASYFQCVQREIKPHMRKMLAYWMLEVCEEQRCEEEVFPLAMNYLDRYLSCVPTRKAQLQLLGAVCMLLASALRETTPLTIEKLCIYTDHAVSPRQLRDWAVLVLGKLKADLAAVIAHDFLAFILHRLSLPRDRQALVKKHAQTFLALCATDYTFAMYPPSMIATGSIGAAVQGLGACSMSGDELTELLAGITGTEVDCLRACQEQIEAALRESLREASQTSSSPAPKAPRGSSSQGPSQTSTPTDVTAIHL
Substitution,normalised enrichment score
E10G,0.144
D8K,0.152
V3W,0.119
P2N,0.14
L7E,0.0908

# Study 2 — technique: protein-binding microarray; form: double-stranded DNA, one strand shown; sample: in vitro; concentration: 940 nM top; setting: 60-bp whole probe; together with: salmon DNA 0.4 mg/ml; relative to: random background probes; direction: higher = stronger binding; shared flanks, not repeated: GCCTAGCAC … GTCTTGATTCGCTTGACGCTGCTG
# Target: Interferon regulatory factor 5, full length, phosphomimetic (IRF5, Homo sapiens, UniProt Q13568-2, residues 1-514, S451D/S453D/S456D/S462D)
Oligonucleotide,fitted relative affinity [z-score]
TTAGGTTTCCTTGTCCTTTAGTGCTAG,1.6
TACGGTTCCGGTTTCGGGACGTGCTAG,5.35
GACGGTTTCGAATTTCGGGACGTGCTA,5.34
TTAGGACTGCTTCTACTTTAGTGCTAG,-0.0375
GACGGACTTCTTATCCTGACGTGCTAG,0.125
TCAAAGTTCTTTTTTTCACTGTGCTAG,0.729

# Study 3 — technique: RNA Bind-n-Seq; form: RNA; sample: in vitro; concentration: not given; setting: RNA with constant flanks, ends assumed; relative to: input RNA pool; direction: higher = stronger binding
# Target: RING finger protein unkempt homolog, zinc fingers 1-6, GST-SBP tag (UNK, Homo sapiens, UniProt Q9C0B0, residues 30-357)
# Construct (chain): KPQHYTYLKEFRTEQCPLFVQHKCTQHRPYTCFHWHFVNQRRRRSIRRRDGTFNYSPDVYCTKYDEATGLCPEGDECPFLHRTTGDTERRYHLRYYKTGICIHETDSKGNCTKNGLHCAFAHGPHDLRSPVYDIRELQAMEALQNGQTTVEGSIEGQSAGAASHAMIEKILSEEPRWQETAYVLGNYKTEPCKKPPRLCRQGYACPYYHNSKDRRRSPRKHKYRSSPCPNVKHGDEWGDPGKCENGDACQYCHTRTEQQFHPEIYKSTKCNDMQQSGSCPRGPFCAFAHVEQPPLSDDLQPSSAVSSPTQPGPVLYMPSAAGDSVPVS
Oligonucleotide,bound/input enrichment
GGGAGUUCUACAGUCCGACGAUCUCAGUCUAAGUCACAAAAAUAUCCAGUUUAACAUAAAGCUGUCUGUGCAAAGAAUAGGUGACCGACUGCUAUUUUAACCAGGCUGAAAAGAAAAACAGAUGCAAGUGUCCCCUUUCAUGGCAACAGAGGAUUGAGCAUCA,0.13 ratio
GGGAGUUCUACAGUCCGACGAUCAACCAAGGCAUUGCUCCUGUCCAAGUCUGUACUAAUCUCUUGAUCAAGCAGGUGAUUGAAGCCGCUUGUGGUUCACAUCAUUCGAUGGCUUUAGCAGCUGAUGGAGAGUUAUUUGCUUGGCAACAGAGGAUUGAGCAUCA,0.0958 ratio
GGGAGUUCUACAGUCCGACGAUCAUGGAGGUUAAAGUGAAGAUUCCUGAAGAAUUAAAACCAUGGCUUGUUGAGGACUGGGACUCCGUUACCAGGCAGAAGCAGCUGUUUCAACUCCCUGCCAAGAAAAAUGUAGAUGCAAUUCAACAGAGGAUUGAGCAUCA,0.341 ratio
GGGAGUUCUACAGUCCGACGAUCGUCAUUCAUACCAUUCACACCUAAAGACUGAAUUUUAUCUGUUUUGAAAACGAACUUCUCCCGCUACACAGAAGUAACAAAAUAUGUUAGUCAGUUUUGUAUUUAGAAAUGUAUUGGUAGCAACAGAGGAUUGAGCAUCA,2.47 ratio
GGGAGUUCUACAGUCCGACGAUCUCCCUUUAUCCACAGUUUAUGUUUCAUUUAAGAAGAUCUUCUUUCCUGCAAGUUUUUAACAACCGUCCUGAUGAGAGUUCAUAUUAUCGUCACCAUUUUAUGCGUCAAGAUCUGACCCAGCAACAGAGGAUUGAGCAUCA,0.616 ratio

# Further values, each from its own experiment
Molecule,target,assay,test system,conditions,how to read,quantity,result
"PhoQ, residues 284 288 289 292 302 303 GLASVI","PhoP, residues 12 14 15 18 19 LWHCS (Escherichia coli, UniProt P23836)","Sort-seq, item: YFP reporter",E. coli,"PhoQ-PhoP variant library, together with: 10 µM Mg2+","relative to: high Mg2+ state, higher = stronger signaling",fold induction,9.05

# Some of these lines once more (study 1):
Substitution,normalised enrichment score
V3W,0.119
P2N,0.14
